Measured values gathered from unrelated publications.
Every numbered part comes from another study and shows a few of its results, in no order. Positions count from the first letter of the parent shown.

Block 1
Target: Interferon regulatory factor 5, full length, phosphomimetic (IRF5, Homo sapiens, UniProt Q13568-2, residues 1-514, K96S/S451D/S453D/S456D/S462D)
Technique: protein-binding microarray
Molecule type: double-stranded DNA, one strand shown
Matrix: in vitro
Tested at: 250 nM
Setting: 60-bp whole probe
Added: salmon DNA 0.4 mg/ml
Relative to: random background probes
Reading: higher = stronger binding
Constant ends, left off below: GCCTAGCAC … GTCTTGATTCGCTTGACGCTGCTG
Oligonucleotide | log fluorescence [z-score]
TCAAACTTCTCCACTGAAACTGTGCTA | 1.08
GACGATATCGGTTATCGAGACGTGCTA | 5.46
ACTCCTATCCAAGTTCCCCTGGTGCTA | -0.00506
TCATCTTTATGCACTCTTACTGTGCTA | 0.896
TCAGCTCTTATATACCTGACTGTGCTA | -0.102
AAGCAGTTACTCTAGAGGCCGTGCTAG | -0.426
TTAGATATCAGTATCGATGAGTGCTAG | 6.07
TATTTTTACATTATTACCTCGTGCTAG | 1.14
TTATGTATCGACTTTCGGTTAGTGCTA | 10.2
TTAGGTTTCGGTTCCTGTTAGTGCTAG | 10.3
GACGGACTGGACTATCGGAACGTGCTA | 1.19
TTAGATCTCGGTCTCGATTAGTGCTAG | 0.654
TACGGTTTCGGTTCCGGGACGTGCTAG | 9.73
TTAGATCTCAGACTGGGTTAGTGCTAG | -0.167
CTCTTTCTCTGCTACCCTCTGGTGCTA | 1.5
GACGGACTGCGACTGCTGACGTGCTAG | -0.514
ATCTTTTTCCCTATTATATAGTGCTAG | 2

Block 2
Target: Prothrombin, mature alpha-thrombin (F2, Homo sapiens, UniProt P00734)
Technique: aptamer microarray, sandwich
Molecule type: DNA with 2'F-ANA
Matrix: in vitro
Tested at: 200 nM
Setting: whole 15-mer aptamer, many near background
Added: Cy3 exosite-II aptamer, 400 nM
Reading: higher = stronger binding
Oligonucleotide: GGTTGGTGTGGTTGG
Modification | mean fluorescence intensity [a.u.]
2'F-ANA at 2 3 8 12 13 14 15 | 522
2'F-ANA at 2 4 5 6 10 11 12 14 15 | 50.4
2'F-ANA at 3 4 5 7 9 11 14 15 | 81
2'F-ANA at 2 5 7 10 12 15 | 48.7
2'F-ANA at 1 2 7 8 9 10 11 12 | 68
2'F-ANA at 1 3 4 8 11 12 13 | 296
2'F-ANA at 2 3 8 9 10 11 12 13 15 | 389
2'F-ANA at 2 5 9 11 12 13 14 15 | 57.4
2'F-ANA at 1 3 4 6 9 10 13 15 | 56.7
2'F-ANA at 2 5 6 9 14 | 44.3
2'F-ANA at 6 7 10 11 13 15 | 172
2'F-ANA at 1 3 4 5 6 7 11 13 14 15 | 61.1
2'F-ANA at 4 5 6 11 15 | 164
2'F-ANA at 3 4 6 7 8 9 10 11 13 | 187
2'F-ANA at 1 3 6 7 8 9 12 | 506
2'F-ANA at 1 3 4 9 10 12 13 14 | 144
2'F-ANA at 1 5 6 7 8 9 10 12 | 49.1
2'F-ANA at 4 5 7 8 9 10 11 | 73
2'F-ANA at 5 6 7 8 9 11 12 13 | 99
2'F-ANA at 2 5 7 8 11 12 14 15 | 60.1
2'F-ANA at 1 3 4 5 10 11 15 | 49.4
2'F-ANA at 4 5 6 9 11 12 13 | 94.5
2'F-ANA at 1 2 5 7 8 14 15 | 71.5
2'F-ANA at 1 3 4 6 8 9 10 11 12 14 15 | 89.5
2'F-ANA at 1 3 6 7 9 10 12 13 | 97.9

Block 3
Target: Histone acetyltransferase KAT6A, winged helix 1, GST fusion (KAT6A, Homo sapiens, UniProt Q92794, residues 1-85)
Technique: protein binding microarray
Molecule type: double-stranded DNA, one strand shown
Matrix: in vitro
Tested at: not given
Setting: 8-mer, flanks averaged, mean of 2 arrays, mostly near background
Relative to: not given
Reading: higher = stronger binding
Construct (chain): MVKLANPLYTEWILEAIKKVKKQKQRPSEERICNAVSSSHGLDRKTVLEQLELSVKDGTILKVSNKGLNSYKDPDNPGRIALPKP
Oligonucleotide | E-score
AGATTCTA | -0.198
AACCTCTT | 0.0114
GACGCTAC | 0.182
ATCTGCCA | -0.17
AGCCCTCG | -0.0681
ACTGGTTA | -0.0744
GATACCGC | 0.339
GACGCTGC | 0.165
CGTGGACA | 0.139
GTATAGCA | -0.0881
GGCGAGGA | 0.103
CCCCTCAG | -0.0608
GTTCTACA | -0.0122
AGTAGTCC | 0.192
ATTCACGG | 0.16
CGCCTGGA | 0.014
GAAACCGC | 0.22
ACAGCCGT | 0.275
GGGCCGAA | 0.111
CAAGGGGG | -0.021
AAAATGCG | 0.252
ATCATCTA | -0.106
TAAGCTGA | -0.0547
ACTCAGGC | -0.13
TACAGTCA | -0.143

Block 4
Target: RNA binding protein fox-1 homolog 2, RRM domain, GST-SBP tag (RBFOX2, Homo sapiens, UniProt O43251-10, residues 100-194)
Technique: RNA Bind-n-Seq
Molecule type: RNA
Matrix: in vitro
Tested at: 365 nM
Setting: natural RNA segment, single round, ends assumed
Relative to: no-protein control
Reading: higher = stronger binding
Constant ends, left off below: GGGAGUUCUACAGUCCGACGAUC … UGGAAUUCUCGGGUGCCAA
Target sequence (chain): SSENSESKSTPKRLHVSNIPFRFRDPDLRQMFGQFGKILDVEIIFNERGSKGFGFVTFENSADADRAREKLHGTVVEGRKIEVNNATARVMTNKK
Oligonucleotide | RBNS enrichment (R)
CAGAAUAGAUACCAAGAAAAAGCUAUCUAUUAGGUUUCUAAUUCCAGGACCUAGAUAGACAAGUACACUUUUAAUUGAGGCCAAAUGAUGAGCCACAAUGGUAACCCAUA | 0.451
GUUUUCUUAGGAGGGUGUCUGGCAGAGACAGGCCAGCCCCCACUUGCUGGCCAGGGGUCCCUUGGGGCAGCACGUGGACCCUUCCAAAACUAUACACACUGCCCCCGACU | 0.793
AAUUUUAUAGGGAAAAGGGUAUCAUGAUUGAAUUCAGAAUCUUACUUUAUAAGGUCAGUGUGCAUUUGUUCUAGUUAUAAUGCUUUUAAAUUGUACUUUUUCUUCCCAUG | 0.412
UCUGCAUUUGAUAUAAUGCCUUAAUUACUGGGUCUACAAUUAAUGUUGACUGUUUUAGAUUGUAAGCUCCUGGAGAGCAGUAUUGCUGUAGUAGGAAUGUUUUAACAGUG | 10.5
UAUGUCUCCAGUUGGCAGCUUGAGAUAUUUCCGAGCAUCCGGUUCUAGCUACCAGUGCCUCCCAAUGCUUAGUGCACAGUACUGUAGACUGGCCAUCACCCCUCUCCUUG | 0.372
GGAAUCUGAGUUGCCAACUUCAGGACGACACCUGGCUUGCCACCCACAGUGCACCACAGGCCAACCUACGCCCUUCAUCACUUGGUUCUGUUUUAAUCGACUGGCCCCCU | 0.29
CUUCUUUUUAAUGGUAAAUAUUCUUGUUCUUCAACAUUUUUCUUUGGUUCUUUUUUCCUUUUUUAGGAAAAACAAAACAACAGACUUCAUCCUUAGGUUUUCUCAAGAUU | 0.642
CUAAUUACCAGGCCAGGAAGCAUGCCAACAAAGCCACACGGGUGUCCUAGCCAGCUUCCCUUCACCUGGUGUCUUGAGUAGGGCGUCUCCUGUAAUUACUGCCUUGCCAU | 1.08
UUUGUAGAUGAAAAAAAUCAUUAUGUUUAGAGGUCUAAUGCUAUGUUUUCAUAUUACAGAGUGAAUUUGUAUUUAAACAAAAAUUUAAAUUUUGGAAUCCUCUAAACAUU | 0.472
GUGGCUCAUGAAAUCACAGAGCUCAGAGAUACCAUCUUGAGAAAUCCUCCUUGGUAUCAUGAAACUGGAGCAGAGGAAUUGCAAUUUAGCAGGAGGUCCUCUACUGGUGA | 0.252
GUCACUGACUCUGUUCACACAACUGUAUGUCUUACUGAAGGUCCCUGAAAGAUGUUUGAGGCUUGGGAUUCCAAACUUGGUUUAUUAAACAUAUAGUCACCAUCUUCCUA | 0.487
UUUGGUGACCCUGCUUAAGCAUUCCCACCGUGUCCCAGCUCUGCUCUAGGACUGCCUCCCACUGCGGCCCCUCACCUGACUUCAGGGUAUGGGGAGGGAGGGAGCCAGUG | 0.28

Block 5
Target: CCNB1, cyclin fold, Cln2 fusion (human)
Technique: yeast growth competition, sequencing
Matrix: yeast
Setting: strong parent motif
Relative to: not given
Reading: higher = stronger binding
Starting sequence: E2F1 docking peptide (human); PPVKRRLDLETDH
Change | normalised enrichment score
PPVKRRLELETDH [D8E] | 0.802
PPVKRCLDLETDH [R6C] | 0.998
PPVKRHLDLETDH [R6H] | 0.897
PPVKRTLDLETDH [R6T] | 1.23
PPVKPRLDLETDH [R5P] | -0.989
PPVNRRLDLETDH [K4N] | 1.51
PPVKRRLDLCTDH [E10C] | 1.17
DPVKRRLDLETDH [P1D] | 1.39
PPVKRKLDLETDH [R6K] | 1.07
PPVKRRLDLETTH [D12T] | 0.582
PPVKRRLLLETDH [D8L] | 2.12
PPVKRRLDLETDL [H13L] | 1.68
PPVKRRDDLETDH [L7D] | 0.172
PPVCRRLDLETDH [K4C] | 3.01
PPVKRRLDLETPH [D12P] | 2.06
PPVKRRLDLETDQ [H13Q] | 1.74
PPVKDRLDLETDH [R5D] | 0.7
PPVKRRLDLGTDH [E10G] | 1.73
PPVKRRLDLETCH [D12C] | 0.81
RPVKRRLDLETDH [P1R] | 0.577
PPVKRRLDLETKH [D12K] | 1.09
PPVKRRLDLETDC [H13C] | 1.67
LPVKRRLDLETDH [P1L] | 2.47
PPVKRRLDLPTDH [E10P] | 0.789
PIVKRRLDLETDH [P2I] | 0.356

Excerpt of the above (block 4):
Oligonucleotide | RBNS enrichment (R)
GUUUUCUUAGGAGGGUGUCUGGCAGAGACAGGCCAGCCCCCACUUGCUGGCCAGGGGUCCCUUGGGGCAGCACGUGGACCCUUCCAAAACUAUACACACUGCCCCCGACU | 0.793
AAUUUUAUAGGGAAAAGGGUAUCAUGAUUGAAUUCAGAAUCUUACUUUAUAAGGUCAGUGUGCAUUUGUUCUAGUUAUAAUGCUUUUAAAUUGUACUUUUUCUUCCCAUG | 0.412
UCUGCAUUUGAUAUAAUGCCUUAAUUACUGGGUCUACAAUUAAUGUUGACUGUUUUAGAUUGUAAGCUCCUGGAGAGCAGUAUUGCUGUAGUAGGAAUGUUUUAACAGUG | 10.5
UAUGUCUCCAGUUGGCAGCUUGAGAUAUUUCCGAGCAUCCGGUUCUAGCUACCAGUGCCUCCCAAUGCUUAGUGCACAGUACUGUAGACUGGCCAUCACCCCUCUCCUUG | 0.372
GGAAUCUGAGUUGCCAACUUCAGGACGACACCUGGCUUGCCACCCACAGUGCACCACAGGCCAACCUACGCCCUUCAUCACUUGGUUCUGUUUUAAUCGACUGGCCCCCU | 0.29
CUUCUUUUUAAUGGUAAAUAUUCUUGUUCUUCAACAUUUUUCUUUGGUUCUUUUUUCCUUUUUUAGGAAAAACAAAACAACAGACUUCAUCCUUAGGUUUUCUCAAGAUU | 0.642
CUAAUUACCAGGCCAGGAAGCAUGCCAACAAAGCCACACGGGUGUCCUAGCCAGCUUCCCUUCACCUGGUGUCUUGAGUAGGGCGUCUCCUGUAAUUACUGCCUUGCCAU | 1.08
UUUGUAGAUGAAAAAAAUCAUUAUGUUUAGAGGUCUAAUGCUAUGUUUUCAUAUUACAGAGUGAAUUUGUAUUUAAACAAAAAUUUAAAUUUUGGAAUCCUCUAAACAUU | 0.472
GUGGCUCAUGAAAUCACAGAGCUCAGAGAUACCAUCUUGAGAAAUCCUCCUUGGUAUCAUGAAACUGGAGCAGAGGAAUUGCAAUUUAGCAGGAGGUCCUCUACUGGUGA | 0.252
GUCACUGACUCUGUUCACACAACUGUAUGUCUUACUGAAGGUCCCUGAAAGAUGUUUGAGGCUUGGGAUUCCAAACUUGGUUUAUUAAACAUAUAGUCACCAUCUUCCUA | 0.487
UUUGGUGACCCUGCUUAAGCAUUCCCACCGUGUCCCAGCUCUGCUCUAGGACUGCCUCCCACUGCGGCCCCUCACCUGACUUCAGGGUAUGGGGAGGGAGGGAGCCAGUG | 0.28
